Measurements of several laboratories.
Compare with care: the assays were run in different laboratories. Numbers after ± are the reported error.

Compound	assay	test system	setting	tissue uptake
CCCC[C@H](NC(=O)CNC(=O)CNC(=O)CN1CCN(CC(=O)O)CCN(CC(=O)O)CC1)C(=O)N[C@H]1CC(=O)NCCCC[C@@H](C(N)=O)NC(=O)[C@H](Cc2c[nH]c3ccccc23)NC(=O)[C@H](CCCNC(=N)N)NC(=O)[C@@H](Cc2ccccc2)NC(=O)[C@H](Cc2c[nH]cn2)NC1=O [gallium-67 labelled]		C57 mice, female, B16/F1 melanoma, intestines	intravenous, 0.037 MBq, 2 h	1.22 ± 0.97 %ID
CC(F)C(=O)NCCOCCOCCOCC(=O)N[C@@H](CCC(=O)NCCCC[C@@H]1NC(=O)[C@@H](Cc2ccc(O)cc2)NC(=O)[C@H](CC(=O)O)NC(=O)CNC(=O)[C@H](CCCNC(=N)N)NC1=O)C(=O)NCCCC[C@@H]1NC(=O)[C@@H](Cc2ccc(O)cc2)NC(=O)[C@H](CC(=O)O)NC(=O)CNC(=O)[C@H](CCCNC(=N)N)NC1=O (stereo partly drawn) [fluorine-18 labelled]	small-animal PET	female athymic nude mice, U-87 MG xenograft, muscle	intravenous, 3.7 MBq, 120 min	0.15 ± 0.04 %ID/g
O=C([O-])c1cccc(CN(CCN(Cc2cn(Cc3ccccc3)nn2)Cc2cccc(C(=O)[O-])n2)Cc2cn(Cc3ccccc3)nn2)n1.[64Cu+2]		healthy athymic nude mice, muscle	intravenous, 1 h	0.45 %ID/g
NC12CNCCNCC(NCc3ccc(CNC(=O)CCCC(=O)NCc4ccc(-c5nncnn5)cc4)cc3)(CNCCNC1)CNCCNC2.[64Cu+2]		athymic nude mice SW1222 xenograft, heart	4 h post injection, 24 h accumulation interval, together with: huA33-TCO pretargeting	1.45 ± 0.03 %ID/g
N=C(N)NCCC[C@@H]1NC(=O)[C@H](CCCCNC(=O)CON=C[C@H](F)[C@@H](O)[C@H](O)[C@H](O)CO)NC(=O)[C@@H](Cc2ccc(O)cc2)NC(=O)[C@H](CC(=O)O)NC(=O)CNC1=O [fluorine-18 labelled]		nude mice U-87 MG tumour, bone	intravenous, 2 h	0.13 ± 0.21 %ID/g
CC(F)C(=O)NC[C@@H]1O[C@H](C(=O)NCCCC[C@@H]2NC(=O)[C@@H](Cc3ccc(O)cc3)NC(=O)[C@H](CC(=O)O)NC(=O)CNC(=O)[C@H](CCCNC(=N)N)NC2=O)[C@H](O)[C@H](O)[C@H]1O (stereo partly drawn) [fluorine-18 labelled]	small-animal PET	female athymic nude mice, U-87 MG xenograft, kidney	intravenous, 3.7 MBq, 60 min	0.96 ± 0.15 %ID/g
CCCC[C@@H]1NC(=O)[C@@H](NC(=O)[C@H](CCC(=O)O)NC(=O)CNC(=O)CN2CCN(CC(=O)O)CCN(CC(=O)O)CCN(CC(=O)O)CC2)CCCCNC(=O)C[C@@H](C(N)=O)NC(=O)[C@H](C(C)C)NC(=O)[C@@H]2CCCN2C(=O)[C@H](CCCNC(=N)N)NC(=O)CNC(=O)[C@H](Cc2c[nH]c3ccccc23)NC(=O)[C@H](CCCNC(=N)N)NC(=O)[C@@H](Cc2ccccc2)NC(=O)[C@H](Cc2c[nH]cn2)NC(=O)[C@H](CCC(=O)O)NC1=O [gallium-67 labelled]		C57 mice with B16/F1 melanoma, kidneys	intravenous, 0.037 MBq, 0.5 h	23.9 ± 7.15 %ID/g
CC(C)[C@H](NC(=O)[C@@H]1CCCN1C(=O)[C@H](CCCNC(=N)N)NC(=O)[C@H](CS)NC(=O)[C@H](Cc1c[nH]c2ccccc12)NC(=O)[C@H](CCCNC(=N)N)NC(=O)[C@@H](Cc1ccccc1)NC(=O)[C@H](Cc1c[nH]cn1)NC(=O)[C@H](CCC(=O)O)NC(=O)[C@H](CS)NC(=O)[C@H](CS)NC(=O)COCCOCCNC(=O)[C@@H]1CC(=O)N[C@@H](CCCNC(=N)N)C(=O)NCC(=O)N[C@@H](CC(=O)O)C(=O)N[C@H](Cc2ccc(O)cc2)C(=O)N1)C(N)=O [technetium-99m labelled]		nude mice, M21 melanoma xenograft, blood	intravenous, 0.037 MBq, 2 h	1.52 ± 0.01 %ID/g
CCCC[C@H](NC(=O)CNC(=O)CNC(=O)CN1CCN(CC(=O)O)CCN(CC(=O)O)CCN(CC(=O)O)CC1)C(=O)N[C@H]1CC(=O)NCCCC[C@@H](C(N)=O)NC(=O)[C@H](Cc2c[nH]c3ccccc23)NC(=O)[C@H](CCCNC(=N)N)NC(=O)[C@@H](Cc2ccccc2)NC(=O)[C@H](Cc2c[nH]cn2)NC1=O [lead-203 labelled]		C57 mice with metastatic melanoma, lung	intravenous, 0.056 MBq, 2 h	7.32 ± 2.13 %ID/g

A few entries again:
Compound	assay	test system	setting	tissue uptake
CC(F)C(=O)NC[C@@H]1O[C@H](C(=O)NCCCC[C@@H]2NC(=O)[C@@H](Cc3ccc(O)cc3)NC(=O)[C@H](CC(=O)O)NC(=O)CNC(=O)[C@H](CCCNC(=N)N)NC2=O)[C@H](O)[C@H](O)[C@H]1O (stereo partly drawn) [fluorine-18 labelled]	small-animal PET	female athymic nude mice, U-87 MG xenograft, kidney	intravenous, 3.7 MBq, 60 min	0.96 ± 0.15 %ID/g
